{"data": "Measurements collected from several papers", "note": "A part holds a random share of what one study measured. Changes are numbered by the printed parent chain."}
{"data": "Study 1", "target": "Phosphate system positive regulatory protein PHO4, full length, GST-tagged (PHO4, Saccharomyces cerevisiae, UniProt P07270, residues 1-312)", "method": "competition protein-binding microarray", "form": "double-stranded DNA, one strand shown", "matrix": "in vitro", "tested at": "2 µM", "notes": "whole 60-bp probe, lowest competitor level", "together with": "Cbf1 competitor, 0.05 µM", "reading": "higher = stronger binding", "shared flanks, not repeated": "… GTCTTGATTCGCTTGACGCTGCTG", "Construct (chain)": "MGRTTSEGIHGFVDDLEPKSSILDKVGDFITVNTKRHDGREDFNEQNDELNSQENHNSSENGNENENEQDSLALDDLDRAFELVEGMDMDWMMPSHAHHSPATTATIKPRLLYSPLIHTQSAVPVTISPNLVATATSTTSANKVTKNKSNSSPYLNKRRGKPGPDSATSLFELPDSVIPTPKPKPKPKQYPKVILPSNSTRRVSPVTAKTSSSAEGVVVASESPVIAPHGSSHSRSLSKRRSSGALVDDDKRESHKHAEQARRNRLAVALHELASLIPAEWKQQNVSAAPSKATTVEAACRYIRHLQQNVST"}
{"Oligonucleotide": "TGCGTAAAAAAAAGACACATGTGAGACGCAGGAAAA", "fluorescence intensity [a.u.]": 10100}
{"Oligonucleotide": "CTAACGAAGGTTTTTCACGTGTATTACAAGCCAAGT", "fluorescence intensity [a.u.]": 12100}
{"Oligonucleotide": "TGCGCAACAACTTTTCACGTGCCTTTATGTCTAGAA", "fluorescence intensity [a.u.]": 17200}
{"Oligonucleotide": "CCAACTTTTTTGGATCACATGATAAGAGTTACTATT", "fluorescence intensity [a.u.]": 6510}
{"Oligonucleotide": "AGCTTGGGGTGCTTGGGCGTGCGATGCTCGAGGCAT", "fluorescence intensity [a.u.]": 7260}
{"Oligonucleotide": "TTATTGGTGGACAGTCAGCTGACAGAAAACTTAGAT", "fluorescence intensity [a.u.]": 3350}
{"Oligonucleotide": "AAGAACATTCTTTCTGTCGTGATGGTGTACTGGTGT", "fluorescence intensity [a.u.]": 4620}
{"Oligonucleotide": "CTAACGAAGGTTTGTTCCGTGGGTGACAAGCCAAGT", "fluorescence intensity [a.u.]": 4140}
{"Oligonucleotide": "ATTTTCTTGGTCGACCACGTGCCGACCTTAAAGCAG", "fluorescence intensity [a.u.]": 19000}
{"Oligonucleotide": "CGGGGTTAAGTTTGGCCAGTGGGTGGCTTGCAGCAG", "fluorescence intensity [a.u.]": 4480}
{"Oligonucleotide": "GGAGTGAAAAGGGCGCTCAAAAATAGGCATATCTCA", "fluorescence intensity [a.u.]": 2370}
{"Oligonucleotide": "TGCGCAACAACTTGTCACGAGACTTTATGTCTAGAA", "fluorescence intensity [a.u.]": 7040}
{"Oligonucleotide": "AAAAAAGACGTAAAGCACGTGAAATAAGGAGATTAC", "fluorescence intensity [a.u.]": 14700}
{"Oligonucleotide": "CGATGGCGCCAGCATCACCTGGAGAGCATGGTGTTA", "fluorescence intensity [a.u.]": 5550}
{"Oligonucleotide": "CGACTGCGCTGTAACCATGCGTGGACCAGCCAATTT", "fluorescence intensity [a.u.]": 7140}
{"Oligonucleotide": "TCCTCTACCCGACGCTTCGTGGGTATGAGAAGTAGT", "fluorescence intensity [a.u.]": 8500}
{"Oligonucleotide": "GACCGAACGCCCAACATAAATTAGAATAAGTCGTCA", "fluorescence intensity [a.u.]": 3090}
{"Oligonucleotide": "GTCTTGTCTCATTGGTCGGTGGGTGTCCCCACTTCA", "fluorescence intensity [a.u.]": 4290}
{"Oligonucleotide": "CATTCACTATTTTGTCATGTGACGGAATGCCCCAAA", "fluorescence intensity [a.u.]": 7240}
{"data": "Study 2", "target": "ABI1, truncated, D143A, DHFR fusion (Arabidopsis thaliana)", "method": "DHFR PCA, deep sequencing", "matrix": "yeast", "notes": "methotrexate growth selection, single substitutions", "together with": "(+)-ABA 2500 µM", "reference": "wild-type fitted maximum", "reading": "higher = stronger binding", "starting sequence": "PYL1, truncated, DHFR fusion (Arabidopsis thaliana); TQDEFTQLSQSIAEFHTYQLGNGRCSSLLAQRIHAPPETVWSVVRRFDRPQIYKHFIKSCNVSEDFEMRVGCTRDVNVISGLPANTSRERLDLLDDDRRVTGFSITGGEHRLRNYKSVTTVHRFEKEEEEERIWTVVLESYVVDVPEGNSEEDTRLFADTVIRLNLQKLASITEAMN; partner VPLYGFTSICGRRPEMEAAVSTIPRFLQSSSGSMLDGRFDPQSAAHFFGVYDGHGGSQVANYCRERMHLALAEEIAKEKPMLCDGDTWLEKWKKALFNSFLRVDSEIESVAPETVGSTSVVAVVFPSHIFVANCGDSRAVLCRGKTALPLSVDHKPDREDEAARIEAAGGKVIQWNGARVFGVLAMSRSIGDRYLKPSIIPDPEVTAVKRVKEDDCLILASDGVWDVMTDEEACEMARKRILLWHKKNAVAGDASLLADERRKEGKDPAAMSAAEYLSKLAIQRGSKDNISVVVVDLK"}
{"Change": "S9K", "relative binding score": "118%"}
{"Change": "E109I", "relative binding score": "91.9%"}
{"Change": "G102Q", "relative binding score": "90.9%"}
{"Change": "R74M", "relative binding score": "-9.95%"}
{"Change": "L82S", "relative binding score": "72%"}
{"Change": "L29K", "relative binding score": "91.3%"}
{"Change": "Q2A", "relative binding score": "99.7%"}
{"Change": "E128R", "relative binding score": "103%"}
{"Change": "A35N", "relative binding score": "59.5%"}
{"Change": "F15V", "relative binding score": "80.2%"}
{"Change": "Y18G", "relative binding score": "92.2%"}
{"data": "Study 3", "target": "CCNA1, cyclin fold, Cln2 fusion (human)", "method": "yeast growth competition, sequencing", "matrix": "yeast", "notes": "weak parent motif", "reference": "not given", "reading": "higher = stronger binding", "starting sequence": "WEE2 docking peptide (human); KELRQKLNFSYCE; partner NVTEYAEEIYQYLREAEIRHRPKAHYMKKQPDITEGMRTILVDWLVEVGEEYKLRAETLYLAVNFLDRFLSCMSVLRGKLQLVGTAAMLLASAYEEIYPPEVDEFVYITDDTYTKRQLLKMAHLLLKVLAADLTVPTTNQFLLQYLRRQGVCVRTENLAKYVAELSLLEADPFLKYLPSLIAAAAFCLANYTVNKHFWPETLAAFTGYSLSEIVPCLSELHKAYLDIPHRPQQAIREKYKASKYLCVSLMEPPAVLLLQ"}
{"Change": "K1A", "normalised enrichment score": -0.529}
{"Change": "Q5A", "normalised enrichment score": -0.116}
{"Change": "E13A", "normalised enrichment score": 0.048}
{"Change": "R4A", "normalised enrichment score": -0.459}
{"Change": "C12A", "normalised enrichment score": -0.486}
{"Change": "S10A", "normalised enrichment score": 0.0412}
{"data": "Study 4", "target": "Interferon regulatory factor 5, full length, phosphomimetic (IRF5, Homo sapiens, UniProt Q13568-2, residues 1-514, K96S/S451D/S453D/S456D/S462D)", "method": "protein-binding microarray", "form": "double-stranded DNA, one strand shown", "matrix": "in vitro", "tested at": "250 nM", "notes": "60-bp whole probe", "together with": "salmon DNA 0.4 mg/ml", "reference": "random background probes", "reading": "higher = stronger binding", "shared flanks, not repeated": "GCCTAGCAC … GTCTTGATTCGCTTGACGCTGCTG"}
{"Oligonucleotide": "TCATCAACCAGTTTTCTTACTGTGCTA", "log fluorescence": "0.857 z-score"}
{"Oligonucleotide": "ATAGGTTTCTATATTTGCTTGTGCTAG", "log fluorescence": "2.34 z-score"}
{"Oligonucleotide": "GCTTCCTCCTACCCGACCCCGTGCTAG", "log fluorescence": "0.15 z-score"}
{"Oligonucleotide": "GACGATTCCAGTTTCGGGACGTGCTAG", "log fluorescence": "6.31 z-score"}
{"Oligonucleotide": "GCCGGTTTCGACTTTCGGGACGTGCTA", "log fluorescence": "8.68 z-score"}
{"Oligonucleotide": "TTAGGTCTCGGAATCGGTTAGTGCTAG", "log fluorescence": "0.497 z-score"}
{"Oligonucleotide": "GACGGACTGGGGTACCGGGACGTGCTA", "log fluorescence": "-0.599 z-score"}
{"Oligonucleotide": "TAACATATTCTCTTCTTGCAGTGCTAG", "log fluorescence": "0.583 z-score"}
{"Oligonucleotide": "GACGATATCGGGTATAGAGACGTGCTA", "log fluorescence": "1.89 z-score"}
{"Oligonucleotide": "TCAGTCTTCACTCTGCTACTGTGCTAG", "log fluorescence": "0.417 z-score"}
{"Oligonucleotide": "TTGGGTTTCGGACTGGGTTAGTGCTAG", "log fluorescence": "4.14 z-score"}
{"Oligonucleotide": "AACGGACTGGGGACTGGGGACGTGCTA", "log fluorescence": "-0.254 z-score"}
{"Oligonucleotide": "GACGGTATCGGTTTCGGGTCGTGCTAG", "log fluorescence": "8.75 z-score"}
{"Oligonucleotide": "GACGGTTTCGAGTTTCGGGACGTGCTA", "log fluorescence": "7.14 z-score"}
{"Oligonucleotide": "GACGGACTGCTTTACCTGACGTGCTAG", "log fluorescence": "-0.256 z-score"}
{"Oligonucleotide": "TGAGGTTTCGACTATCGGTTAGTGCTA", "log fluorescence": "9.01 z-score"}
{"Oligonucleotide": "TCATCATTATTGTCTCCCACTGTGCTA", "log fluorescence": "0.837 z-score"}
{"Oligonucleotide": "GACGGTTTCCTTTCCCTGAAGTGCTAG", "log fluorescence": "1.44 z-score"}
{"Oligonucleotide": "TTAAGACTGGGTCTCGGTTAGTGCTAG", "log fluorescence": "0.154 z-score"}
{"data": "Study 5", "target": "UBE2R2 UBC core domain (UniProt Q712K3)", "method": "yeast two-hybrid", "matrix": "yeast", "notes": "mostly zero background", "reference": "not given", "reading": "higher = stronger interaction", "B1": "NEURL1 RING domain (UniProt O76050); chain VTPGLGQWSDECTICYEHAVDTVIYTCGHMCLCYACGLRLKKALHACCPICRRPIKDIIKT", "B2": "TRIM5 RING domain (UniProt Q9C035); chain LREVKLSPEGQKVDHCARHGEKLLLFCQEDGKVICWLCERSQEHRGHHTFLTEEVAREYQVKL", "Target sequence (chain)": "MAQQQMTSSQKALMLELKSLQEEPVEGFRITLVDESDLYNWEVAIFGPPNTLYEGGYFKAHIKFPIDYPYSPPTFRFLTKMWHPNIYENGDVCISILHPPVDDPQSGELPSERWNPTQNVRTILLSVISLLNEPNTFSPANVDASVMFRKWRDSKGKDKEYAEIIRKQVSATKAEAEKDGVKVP"}
{"Sequence": "B1 (NEURL1 RING domain)", "lacZ reporter activity": 0}
{"Sequence": "MPIRALCTICSDFFDHSRDVAAIHCGHTFHLQCLIQWFETAPSRTCPQCRIQVGKRTIIN (TRAIP RING domain (UniProt Q9BWF2))", "lacZ reporter activity": 0}
{"Sequence": "B2 (TRIM5 RING domain)", "lacZ reporter activity": 0}
{"Sequence": "FQGDVDEDLICPICSGVLEEPVQAPHCEHAFCNACITQWFSQQQTCPVDRSVVTVAHLRP (RNF41 RING domain (UniProt Q9H4P4))", "lacZ reporter activity": 0}
{"Sequence": "VEPSEENSKDCVVCQNGTVNWVLLPCRHTCLCDGCVKYFQQCPMCRQFVQESFALC (CGRRF1 RING domain (UniProt Q99675))", "lacZ reporter activity": 0}
